Experimental data of several laboratories.
Protocols differ between the studies behind these lines.
Target: Interleukin-1 receptor-associated kinase 3 (IRAK3, Homo sapiens, UniProt Q9Y616)

Compound | observed | action | technique | tested at | relative to | quantity | result
CNC1C[S+]2CC[S+]3CC[S+](C1)[Ru-4]321([N]=C=S)[n]2c3ccc(OC)cc3c3c4c(c5cc(F)c[n+]1c5c32)C(=O)NC4=O (stereo not shown) |  |  | KinomeScan | 0.1 µM | untreated | remaining binding | 71%
C=CC(=O)N1Cc2nc(-c3cc(-c4cc(Cl)cnc4Cl)c(F)cc3F)n(-c3ccncn3)c2C1 | cell-free assay | inhibitor |  | 1 µM |  | inhibition | -1.3%
CCN1CCN(Cc2ccc(C(=O)Nc3ccc(C)c(NCc4cnc5[nH]ccc5c4OC)c3)cc2C(F)(F)F)CC1 | binding |  | competition with immobilised ligand | 1 µM |  | remaining binding | 100%
CC(C)=CC1OC(C)(C)C2C=C3C(=O)C(Cl)=CC(O)C3C3C(O)C4OC4C(=O)C132 (stereo not shown) | cell-free assay |  | competition with immobilised ligand | 10 µM |  | remaining binding | 93%
COc1cc(Nc2nccc(-c3cnn4nc(OC)ccc34)n2)cc(C(F)(F)F)c1 | binding |  | competition with immobilised ligand | 1 µM |  | remaining binding | 83%
Nc1ncc2c(n1)-c1c([nH]c3ccc(C4=CCOCC4)cc13)CCC2 | binding |  | competition with immobilised ligand | 1 µM |  | remaining binding | 100%
Cc1cnc2nc1Nc1cccc(c1)COC/C=C/COCc1cc(ccc1OCCN1CCOCC1)N2 | binding |  |  | 0.1 µM |  | remaining binding | 62%
C=CC(=O)N1CCc2ccc(-n3c(=O)ccc4cnc5ccc(-c6cnn(C)c6)cc5c43)cc21 |  |  | KINOMEscan | 1 µM | DMSO control | remaining binding | 65%
C=CC(=O)N1CCCC(n2c(=O)c3ncccc3n(Cc3ccc(Oc4ccccc4)cc3)c2=O)C1 (stereo not shown) | cell-free assay |  | competition with immobilised ligand | 1 µM |  | remaining binding | 100%
Cc1ccc(-c2c(/C=C(\C#N)C(=O)NC(C)C)n(CCCO)c3ncnc(N)c23)cc1 | cell-free assay |  | competition with immobilised ligand | 1 µM |  | remaining binding | 34%
CNC(=O)C1CCN(c2cc(C)c(F)cc2NC(=O)c2ccc(-c3cc(O)ccc3C)c(C)c2)CC1 | binding |  | competition with immobilised ligand | 1 µM |  | remaining binding | 83%
CN1CCN(Cc2ccc(-c3ccc(CO[C@H]4CCC[C@@H]4NC(=O)c4cc(-c5cnn(C)c5)cnc4N)cc3)cc2)CC1 | enzyme activity | inhibitor |  | 0.1 µM |  | inhibition | 12%
COc1c(Cl)cccc1Nc1c(-c2ccncc2C#C[C@@]2(C)CCCN2C(=O)/C=C/CN(C)C)[nH]c2c1C(=O)NCC2 | binding |  | competition with immobilised ligand | 3 µM |  | remaining binding | 92%

Repeated from above:
Compound | observed | action | technique | tested at | relative to | quantity | result
C=CC(=O)N1Cc2nc(-c3cc(-c4cc(Cl)cnc4Cl)c(F)cc3F)n(-c3ccncn3)c2C1 | cell-free assay | inhibitor |  | 1 µM |  | inhibition | -1.3%
C=CC(=O)N1CCc2ccc(-n3c(=O)ccc4cnc5ccc(-c6cnn(C)c6)cc5c43)cc21 |  |  | KINOMEscan | 1 µM | DMSO control | remaining binding | 65%
